Experimental data collected from several papers.
Every numbered part comes from another study and shows a few of its results, in no order.
Chain of UniProt P49760 (whole entry, looked up): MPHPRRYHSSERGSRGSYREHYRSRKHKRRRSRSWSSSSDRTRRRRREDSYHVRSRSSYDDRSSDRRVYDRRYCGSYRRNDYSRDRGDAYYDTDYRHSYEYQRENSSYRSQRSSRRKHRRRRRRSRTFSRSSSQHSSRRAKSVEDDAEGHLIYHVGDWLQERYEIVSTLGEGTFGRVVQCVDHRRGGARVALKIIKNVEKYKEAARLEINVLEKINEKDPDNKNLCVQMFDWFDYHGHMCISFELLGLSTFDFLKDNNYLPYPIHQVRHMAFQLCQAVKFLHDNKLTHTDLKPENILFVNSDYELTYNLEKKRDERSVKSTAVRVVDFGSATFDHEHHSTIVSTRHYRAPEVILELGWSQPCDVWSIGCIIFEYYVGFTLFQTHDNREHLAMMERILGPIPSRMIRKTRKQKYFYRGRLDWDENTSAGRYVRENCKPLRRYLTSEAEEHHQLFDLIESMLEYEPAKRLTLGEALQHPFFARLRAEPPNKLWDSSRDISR
Chain of UniProt P51812 (whole entry, looked up): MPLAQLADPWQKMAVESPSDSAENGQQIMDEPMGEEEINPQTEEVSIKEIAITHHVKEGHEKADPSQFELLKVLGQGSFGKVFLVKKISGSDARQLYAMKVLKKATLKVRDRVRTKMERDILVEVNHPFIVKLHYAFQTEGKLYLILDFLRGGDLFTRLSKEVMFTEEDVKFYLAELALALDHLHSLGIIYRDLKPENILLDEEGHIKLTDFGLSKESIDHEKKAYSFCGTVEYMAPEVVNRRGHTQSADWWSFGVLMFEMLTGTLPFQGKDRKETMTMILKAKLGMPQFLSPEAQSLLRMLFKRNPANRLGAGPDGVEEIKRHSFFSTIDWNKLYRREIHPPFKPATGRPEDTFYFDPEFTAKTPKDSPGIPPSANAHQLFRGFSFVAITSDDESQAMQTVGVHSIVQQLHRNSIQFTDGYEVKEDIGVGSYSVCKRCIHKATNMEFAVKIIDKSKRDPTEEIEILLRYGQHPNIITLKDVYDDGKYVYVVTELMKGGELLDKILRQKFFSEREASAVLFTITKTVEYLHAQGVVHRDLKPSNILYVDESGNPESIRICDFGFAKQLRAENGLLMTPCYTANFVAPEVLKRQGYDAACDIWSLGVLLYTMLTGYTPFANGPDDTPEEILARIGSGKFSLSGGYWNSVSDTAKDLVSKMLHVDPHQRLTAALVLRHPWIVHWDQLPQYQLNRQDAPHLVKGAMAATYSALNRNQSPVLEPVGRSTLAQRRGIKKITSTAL
Chain of UniProt Q14164 (whole entry, looked up): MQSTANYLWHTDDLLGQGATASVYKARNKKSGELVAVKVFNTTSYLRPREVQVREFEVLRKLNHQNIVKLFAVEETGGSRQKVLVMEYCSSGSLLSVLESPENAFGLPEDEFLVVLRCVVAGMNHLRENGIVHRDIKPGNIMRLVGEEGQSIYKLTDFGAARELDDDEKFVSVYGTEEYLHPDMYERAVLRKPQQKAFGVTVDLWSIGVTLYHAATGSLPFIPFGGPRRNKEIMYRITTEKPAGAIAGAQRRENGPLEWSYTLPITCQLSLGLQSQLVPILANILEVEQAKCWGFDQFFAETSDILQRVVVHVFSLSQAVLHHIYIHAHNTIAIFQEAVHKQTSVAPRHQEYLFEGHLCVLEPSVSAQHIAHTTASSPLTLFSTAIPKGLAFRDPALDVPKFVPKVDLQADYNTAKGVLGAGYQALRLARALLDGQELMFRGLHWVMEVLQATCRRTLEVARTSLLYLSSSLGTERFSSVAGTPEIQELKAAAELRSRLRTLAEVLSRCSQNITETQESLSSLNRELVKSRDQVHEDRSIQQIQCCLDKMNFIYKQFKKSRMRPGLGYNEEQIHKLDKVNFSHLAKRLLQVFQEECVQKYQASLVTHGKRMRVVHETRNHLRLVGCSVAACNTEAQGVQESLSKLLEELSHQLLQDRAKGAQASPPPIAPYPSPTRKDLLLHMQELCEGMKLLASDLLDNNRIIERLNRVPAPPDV
Chain of UniProt P42684 (whole entry, looked up): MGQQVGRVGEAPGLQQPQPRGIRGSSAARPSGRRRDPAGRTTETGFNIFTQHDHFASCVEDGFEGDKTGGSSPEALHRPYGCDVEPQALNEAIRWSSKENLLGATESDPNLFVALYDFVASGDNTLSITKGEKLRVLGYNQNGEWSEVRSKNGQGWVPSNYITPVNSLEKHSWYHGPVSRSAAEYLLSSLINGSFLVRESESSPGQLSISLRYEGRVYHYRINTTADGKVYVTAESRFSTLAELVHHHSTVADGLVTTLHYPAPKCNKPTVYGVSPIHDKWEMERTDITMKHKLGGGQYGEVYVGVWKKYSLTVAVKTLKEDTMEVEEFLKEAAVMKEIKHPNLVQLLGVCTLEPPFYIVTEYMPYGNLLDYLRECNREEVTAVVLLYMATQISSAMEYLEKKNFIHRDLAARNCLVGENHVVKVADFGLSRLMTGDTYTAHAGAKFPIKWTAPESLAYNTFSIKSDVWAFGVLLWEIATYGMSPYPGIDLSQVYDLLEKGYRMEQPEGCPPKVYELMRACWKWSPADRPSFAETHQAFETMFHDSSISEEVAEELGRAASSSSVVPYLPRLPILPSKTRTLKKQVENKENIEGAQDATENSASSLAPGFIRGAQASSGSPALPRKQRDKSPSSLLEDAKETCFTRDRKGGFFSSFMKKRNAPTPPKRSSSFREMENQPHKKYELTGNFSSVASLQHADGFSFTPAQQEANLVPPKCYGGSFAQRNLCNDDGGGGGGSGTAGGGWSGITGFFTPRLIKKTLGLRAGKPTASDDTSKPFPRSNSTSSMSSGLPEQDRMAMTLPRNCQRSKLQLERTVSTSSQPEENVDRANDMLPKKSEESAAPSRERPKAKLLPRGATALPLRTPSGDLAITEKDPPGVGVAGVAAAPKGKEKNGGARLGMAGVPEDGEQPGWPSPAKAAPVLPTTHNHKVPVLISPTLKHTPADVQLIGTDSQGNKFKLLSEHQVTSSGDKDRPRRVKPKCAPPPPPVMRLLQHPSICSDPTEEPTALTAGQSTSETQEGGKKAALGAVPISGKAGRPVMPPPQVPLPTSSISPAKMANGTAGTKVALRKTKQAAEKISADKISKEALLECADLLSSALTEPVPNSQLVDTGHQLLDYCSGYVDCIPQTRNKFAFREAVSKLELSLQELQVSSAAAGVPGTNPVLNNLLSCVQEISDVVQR
Chain of UniProt Q9HBY8 (whole entry, looked up): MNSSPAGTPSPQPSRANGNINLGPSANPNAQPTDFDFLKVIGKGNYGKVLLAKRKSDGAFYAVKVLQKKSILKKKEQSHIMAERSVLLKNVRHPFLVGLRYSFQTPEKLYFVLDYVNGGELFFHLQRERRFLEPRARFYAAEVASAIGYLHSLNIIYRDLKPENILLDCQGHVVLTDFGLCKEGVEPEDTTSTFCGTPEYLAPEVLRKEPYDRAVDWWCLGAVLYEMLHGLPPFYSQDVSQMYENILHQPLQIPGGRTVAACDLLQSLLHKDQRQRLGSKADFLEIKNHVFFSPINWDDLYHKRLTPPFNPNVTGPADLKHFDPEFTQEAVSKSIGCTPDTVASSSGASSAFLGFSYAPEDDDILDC
Chain of UniProt P49759 (whole entry, looked up): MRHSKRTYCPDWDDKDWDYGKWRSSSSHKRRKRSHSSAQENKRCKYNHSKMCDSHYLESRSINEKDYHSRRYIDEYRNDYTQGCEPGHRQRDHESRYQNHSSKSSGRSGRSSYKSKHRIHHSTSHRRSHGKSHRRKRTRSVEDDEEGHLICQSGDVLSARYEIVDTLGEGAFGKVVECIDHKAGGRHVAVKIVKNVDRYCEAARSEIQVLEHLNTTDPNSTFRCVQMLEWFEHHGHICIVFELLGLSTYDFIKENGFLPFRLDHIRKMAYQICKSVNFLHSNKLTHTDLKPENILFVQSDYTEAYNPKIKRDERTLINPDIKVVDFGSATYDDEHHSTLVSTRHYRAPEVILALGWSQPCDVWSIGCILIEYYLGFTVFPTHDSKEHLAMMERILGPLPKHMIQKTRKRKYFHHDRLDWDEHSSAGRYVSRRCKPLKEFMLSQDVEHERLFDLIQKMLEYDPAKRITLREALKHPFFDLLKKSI
Chain of UniProt P49674 (whole entry, looked up): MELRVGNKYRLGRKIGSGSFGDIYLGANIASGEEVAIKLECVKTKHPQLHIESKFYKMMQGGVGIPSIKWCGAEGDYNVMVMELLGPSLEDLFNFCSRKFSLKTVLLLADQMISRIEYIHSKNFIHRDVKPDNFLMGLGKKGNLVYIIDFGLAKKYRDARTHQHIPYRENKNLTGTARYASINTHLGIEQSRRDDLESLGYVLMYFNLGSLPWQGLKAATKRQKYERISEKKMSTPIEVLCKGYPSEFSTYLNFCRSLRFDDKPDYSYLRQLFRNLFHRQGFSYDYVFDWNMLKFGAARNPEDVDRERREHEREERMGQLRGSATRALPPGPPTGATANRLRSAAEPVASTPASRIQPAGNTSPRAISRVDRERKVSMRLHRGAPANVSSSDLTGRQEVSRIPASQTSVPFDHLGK
Chain of UniProt Q13153 (whole entry, looked up): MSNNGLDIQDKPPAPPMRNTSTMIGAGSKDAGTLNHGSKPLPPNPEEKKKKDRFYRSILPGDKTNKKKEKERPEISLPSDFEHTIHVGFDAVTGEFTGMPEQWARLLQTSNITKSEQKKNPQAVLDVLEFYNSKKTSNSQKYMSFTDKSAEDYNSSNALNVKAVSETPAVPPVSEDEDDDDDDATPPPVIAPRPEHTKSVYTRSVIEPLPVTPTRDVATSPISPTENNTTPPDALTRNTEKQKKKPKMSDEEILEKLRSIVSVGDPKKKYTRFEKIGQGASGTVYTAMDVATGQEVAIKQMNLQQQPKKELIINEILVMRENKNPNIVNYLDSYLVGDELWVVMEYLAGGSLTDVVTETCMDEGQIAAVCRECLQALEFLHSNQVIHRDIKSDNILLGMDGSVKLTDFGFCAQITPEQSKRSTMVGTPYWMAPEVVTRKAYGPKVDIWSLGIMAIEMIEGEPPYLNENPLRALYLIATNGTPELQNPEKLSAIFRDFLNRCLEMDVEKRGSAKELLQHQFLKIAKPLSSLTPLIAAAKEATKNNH

Set 1
Structure (SMILES): c1cc(-c2cnn3cc(-c4ccc(OCCN5CCCCC5)cc4)cnc23)ccn1
Observed: enzyme activity
Mode: inhibitor
Tested at: 0.5 µM
Baseline: control
It gave 85.3% for remaining activity (RPS6KA3 (Homo sapiens, UniProt P51812)).
SIK2 (Homo sapiens, UniProt Q9H0K1) — remaining activity: 46.4%.
The remaining activity was 59.5% (FLT1 (Homo sapiens, UniProt P17948)).
Cyclin-dependent kinase 2, with cyclin E (CDK2, Homo sapiens, UniProt P24941) — remaining activity: 77.5%.
For CSNK1E (Homo sapiens, UniProt P49674): remaining activity read 51.6%.
It gave 11.7% for remaining activity (MAP3K20 (Homo sapiens, UniProt Q9NYL2)).
PAK1 (Homo sapiens, UniProt Q13153) — remaining activity: 89.8%.
It gave 84% for remaining activity (SGK2 (Homo sapiens, UniProt Q9HBY8)).
The remaining activity was 97.9% (SRPK1 (Homo sapiens, UniProt Q96SB4)).
The remaining activity was 21.3% (CLK2 (Homo sapiens, UniProt P49760)).
The remaining activity was 20% (CLK1 (Homo sapiens, UniProt P49759)).
It gave 47.3% for remaining activity (MUSK (Homo sapiens, UniProt O15146)).
It gave 101% for remaining activity (JAK1 (Homo sapiens, UniProt P23458)).
The remaining activity was 22.6% (CSNK1D (Homo sapiens, UniProt P48730)).
The remaining activity was 90.8% (CAMK1 (Homo sapiens, UniProt Q14012)).
IGF1R (Homo sapiens, UniProt P08069) — remaining activity: 94%.
It gave 152% for remaining activity (TEC (Homo sapiens, UniProt P42680)).
It gave 91.6% for remaining activity (TYRO3 (Homo sapiens, UniProt Q06418)).
For EPHA2 (Homo sapiens, UniProt P29317): remaining activity read 36.2%.

Set 2
Compound: CN(C)C(=O)Cn1cc(-c2nc(C3(c4ccc(-c5cnc(N)nc5)cc4)CC3)no2)cn1
Technique: competition with immobilised ligand
Tested at: 1 µM
DAPK3 (Homo sapiens, UniProt O43293); cell-free assay — remaining binding: 92%.
The remaining binding was 94% (PDGFRB (Homo sapiens, UniProt P09619); cell-free assay).
The remaining binding was 100% (CAMKK2 (Homo sapiens, UniProt Q96RR4); cell-free assay).
The remaining binding was 89% (CDK11A (Homo sapiens, UniProt Q9UQ88); binding).
For Tyrosine-protein kinase JAK3, JH1 (JAK3, Homo sapiens, UniProt P52333); cell-free assay: remaining binding read 80%.
The remaining binding was 95% (NEK4 (Homo sapiens, UniProt P51957); cell-free assay).
It gave 94% for remaining binding (CAMK2B (Homo sapiens, UniProt Q13554); cell-free assay).
It gave 99% for remaining binding (MAPKAPK2 (Homo sapiens, UniProt P49137); cell-free assay).
ACVR2A (Homo sapiens, UniProt P27037); cell-free assay — remaining binding: 84%.
For ABL2 (Homo sapiens, UniProt P42684); cell-free assay: remaining binding read 84%.
It gave 100% for remaining binding (FLT3 (Homo sapiens, UniProt P36888, D835Y); cell-free assay).
The remaining binding was 96% (DCLK2 (Homo sapiens, UniProt Q8N568); cell-free assay).
It gave 92% for remaining binding (MAPKAPK5 (Homo sapiens, UniProt Q8IW41); cell-free assay).
The remaining binding was 89% (RIOK3 (Homo sapiens, UniProt O14730); cell-free assay).
PRKX (Homo sapiens, UniProt P51817); cell-free assay — remaining binding: 100%.
IKBKE (Homo sapiens, UniProt Q14164); cell-free assay — remaining binding: 57%.
It gave 84% for remaining binding (Macrophage colony-stimulating factor 1 receptor, autoinhibited (CSF1R, Homo sapiens, UniProt P07333); cell-free assay).
It gave 85% for remaining binding (Ribosomal protein S6 kinase alpha-3, C-terminal kinase domain (RPS6KA3, Homo sapiens, UniProt P51812); cell-free assay).
For CLK2 (Homo sapiens, UniProt P49760); cell-free assay: remaining binding read 94%.

Set 3
Technique: logD(dd/w) and ALogP
Setting: JT method
For CC(C)C[C@@H]1NC(=O)[C@H](C)NC(=O)[C@H](CC(C)C)NC(=O)[C@H](C(C)C)NC(=O)[C@H](CC(C)C)NC(=O)[C@@H](CC(C)C)NC(=O)[C@H](CC(C)C)NC1=O, “lipophilic permeability efficiency” read 2.58.
Under “lipophilic permeability efficiency”, CC(C)C[C@@H]1NC(=O)[C@@H](C)NC(=O)[C@H](CCC(=O)N2CCCC2)NC(=O)[C@H](C)NC(=O)[C@H](C(C)C)NC(=O)[C@H](CC(C)C)NC(=O)[C@@H](CC(C)C)NC1=O is recorded as 2.32.
For CC(C)C[C@@H]1NC(=O)[C@H](CC(C)C)NC(=O)[C@@H](CC(C)C)NC(=O)[C@@H](CC(C)C)NC(=O)[C@H](C)NC(=O)[C@H](CC(C)C)NC(=O)[C@@H](CC(C)C)NC1=O, “lipophilic permeability efficiency” read 2.87.
CC(C)C[C@@H]1NC(=O)[C@@H](C)NC(=O)[C@H](C)NC(=O)[C@@H](CC(C)C)NC(=O)[C@H](C(C)C)NC(=O)[C@H](CC(C)C)NC(=O)[C@@H](CC(C)C)NC1=O: “lipophilic permeability efficiency” 1.99.
For CC(C)C[C@@H]1NC(=O)[C@H](CC(C)C)NC(=O)[C@@H](C(C)C)NC(=O)[C@H](CC(C)C)NC(=O)[C@H](C(C)C)NC(=O)[C@H](Cc2cscn2)NC(=O)[C@H](C)NC1=O, “lipophilic permeability efficiency” read 2.43.
CC(C)C[C@@H]1NC(=O)[C@H](C(C)C)NC(=O)[C@H](CC(C)C)NC(=O)[C@@H](CC(C)C)NC(=O)[C@H](CC(C)C)NC(=O)[C@@H](C)NC(=O)[C@@H](CC(C)C)NC1=O — result for “lipophilic permeability efficiency”: 2.64.
For CC(C)C[C@@H]1NC(=O)[C@H](CC(C)C)NC(=O)[C@@H](CC(C)C)NC(=O)[C@H](CC(C)C)NC(=O)[C@H](C(C)C)NC(=O)[C@H](C)NC(=O)[C@H](C)NC1=O, “lipophilic permeability efficiency” read 2.82.
CC(C)C[C@@H]1NC(=O)[C@H](CC(C)C)NC(=O)[C@@H](C(C)C)NC(=O)[C@H](C)NC(=O)[C@H](C(C)C)NC(=O)[C@H](C)NC(=O)[C@H](C)NC1=O: “lipophilic permeability efficiency” 2.36.

Other studies, line by line
CC(C)S(=O)(=O)c1ccc2nccc(Nc3ccc4sc(C5CCCC5)nc4c3)c2c1 gave an inhibition of 83.6% (Receptor-interacting serine/threonine-protein kinase 3 (RIPK3, Homo sapiens, UniProt Q9Y572); kinase activity, inhibitor, ADP-Glo; 33.33 nM, 1 h).

For quick reference, copied from above (other studies, line by line):
CC(C)S(=O)(=O)c1ccc2nccc(Nc3ccc4sc(C5CCCC5)nc4c3)c2c1 gave an inhibition of 83.6% (Receptor-interacting serine/threonine-protein kinase 3 (RIPK3, Homo sapiens, UniProt Q9Y572); kinase activity, inhibitor, ADP-Glo; 33.33 nM, 1 h).
